Experimental data of several laboratories.
A part holds a random share of what one study measured. Substitutions count along the parent as printed.

Series 1 — method: protein-binding microarray; molecule type: double-stranded DNA, one strand shown; sample: in vitro; tested at: not given; reading: higher = stronger binding
Target: Myc proto-oncogene protein, bHLH-zipper, MAX partner unstated (MYC, Homo sapiens, UniProt P01106, residues 368-449)
Sequence of UniProt P01106 (368-449, looked up): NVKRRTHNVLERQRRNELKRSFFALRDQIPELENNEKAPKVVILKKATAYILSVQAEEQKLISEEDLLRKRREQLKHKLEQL
Notes: k-mer, scored over probes, only values ≥0.25
| Oligonucleotide | E-score |
| --- | --- |
| ACGTGAAG | 0.259 |
| CCGTGCGC | 0.286 |
| TGGCCACA | 0.361 |
| ACGCGAGG | 0.374 |
| CGTGTTTC | 0.311 |
| CAGGTGGC | 0.386 |
| AGAGCACA | 0.275 |
| GAGTGCAC | 0.268 |
| ACGAGGCT | 0.262 |
| ACACGTGC | 0.497 |
| CGTGGAAC | 0.28 |
| ATGCGTGG | 0.421 |

Series 2 — target: CCNB1, cyclin fold, Cln2 fusion (human); method: yeast growth competition, sequencing; sample: yeast; notes: weak parent motif; relative to: not given; reading: higher = stronger binding
Starting sequence: CDC6 docking peptide (human); TLKGRRLVFDNQL
| Change | normalised enrichment score |
| --- | --- |
| TLKGRRQVFDNQL [L7Q] | 0.847 |
| TLKVRRLVFDNQL [G4V] | -0.498 |
| TLKGRRLVFDNAL [Q12A] | 0.513 |
| TLKGRRLIFDNQL [V8I] | 0.425 |
| TLKGRRLVFMNQL [D10M] | 1.49 |
| TLKGRQLVFDNQL [R6Q] | 0.576 |
| TLKGRRLVFDNCL [Q12C] | -0.0685 |
| TLKGRHLVFDNQL [R6H] | 0.221 |
| TLKGRDLVFDNQL [R6D] | -0.435 |
| TLKGRRLEFDNQL [V8E] | 0.392 |
| TRKGRRLVFDNQL [L2R] | 1.19 |

Series 3 — method: RNA Bind-n-Seq; molecule type: RNA; sample: in vitro; tested at: 365 nM; relative to: no-protein control; reading: higher = stronger binding
Target: RNA binding protein fox-1 homolog 2, RRM domain, GST-SBP tag (RBFOX2, Homo sapiens, UniProt O43251-10, residues 100-194)
Notes: natural RNA segment, single round, ends assumed
All sequences stand within: GGGAGUUCUACAGUCCGACGAUC … UGGAAUUCUCGGGUGCCAA
Residues (chain): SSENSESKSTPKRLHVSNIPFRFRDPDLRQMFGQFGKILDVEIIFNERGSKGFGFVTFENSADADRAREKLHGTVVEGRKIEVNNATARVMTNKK
| Oligonucleotide | RBNS enrichment (R) |
| --- | --- |
| GGAAUAAGUGAUCAGCAAGUGAACACACUCUAUGUCAACUCUCCUUUUAUCCAGCUGAGAUUUAUGGUAACUUAUUUAAUUAAUGGUCCUGUCUGAUGCAUCCUUGAUGG | 0.505 |
| AUGAACCCUGCCCCACUCCUGUCAGCCCCUCAUCAGCCUUUUCAGCAGGUUCCAGUGCCUGACUUGGGAUAGGACUGAGUGGUAGGAGGAGGGGGAGUGGAGGGGCAUAG | 0.784 |
| GGAUACCAGGAGGUAUUUGGGAAGGCCAAUGGCGUGGCUCCUUUGAGGAAAUAAAACACUAAGCAUGAGCCGGCUCCGCCUCUUCUGUCUCCGCUUUCAUCCCAGGGCAC | 0.774 |
| GCUGCCCAUCCCUGUUGCCUUUGAGUUUCUUGGAAUUGUGGCUGUCCUCGGAAUCUCUUUUCUAUUCACAGCCCUUCUAUAGCCUUGCUCUGAUGGUUUUAGCACUUGAU | 0.559 |
| UCAGUUAAGCUCAAUAGCGAAUGUGGGACCCCCUCCUCUGACCUUCCCUGGGGGAGAAACCCUCUUGGCUAAUGGCUCUUCCCUGGCAUUAUCAAUAACCACCCGGGGAC | 0.486 |
| GGGGACAUGGAGCUUAAUCAUUGGUCAGGUUUGAAGUCUUUUGAAGCUAAGUAAUUUUAUUUAAUAUGAUUACAUGUCGUCAGUCAUGAGUGAGGUGUAGGGAGUCUCCC | 0.666 |
| GCUGAAUUAACUUUUCCAACAACCAAGUGGGUCAGCAAUUUGAUGCCCUUGAUAAAUAUCAACUUUAUUGAAUUGUACCUUUUAUUAAAAAGGAAAUACUUCAAAACCUU | 0.373 |
| UUAUUCAGGAAAAAAACUGAGCAGCUCUGGCCAGCAGCAAGGUUUCUUCUCUACUGCCCCAACUAUUGUGUGGCCUCUUGUGCUGAAAUCUCUGGCUUCAGAGCCUGAAA | 0.309 |
| GUAAAUAGAAAAAUGGUAGACCGCUGUCUAGUUUUCUCCGCAGGCAUUUUUGGGAGUGUAUCUAUAGCCUGUUCUACUUUGUUAAUGGGGGAUAACAGCACAUCCUAGAU | 0.49 |
| AAAUGAUUAGGAUGCCACAGAUGGUACAUCUAGUGGUCCAGAUAGGAUCCCUCCUGAAAUCUCCUACUUCUUGUCUGCCACUCACUCUUGAGGACACUGGGCCCCCAUGG | 0.635 |
| CCAAAUUGGUUCCCCUGCUCCCCCCCUCCAACCUCUCAAAGACAGAAUGUGUCUCAGAGAUUUCCUGCAAGAAACUCAGGUCCAAUCUGGACUAGAAUAAAGACCUCUGG | 1.5 |

Single results of other studies
| Substance | target | assay | system | setting | how to read | endpoint | value |
| --- | --- | --- | --- | --- | --- | --- | --- |
| PhoQ, residues 284 288 289 292 302 303 AAQSYM | PhoP, residues 12 14 15 18 19 LHHSG (Escherichia coli, UniProt P23836) | Sort-seq, refers to: YFP reporter | E. coli | PhoQ-PhoP variant library, with: 10 µM Mg2+ | relative to: high Mg2+ state, higher = stronger signaling | fold induction | 11.6 |

Excerpt of the above (series 3):
| Oligonucleotide | RBNS enrichment (R) |
| --- | --- |
| GGGGACAUGGAGCUUAAUCAUUGGUCAGGUUUGAAGUCUUUUGAAGCUAAGUAAUUUUAUUUAAUAUGAUUACAUGUCGUCAGUCAUGAGUGAGGUGUAGGGAGUCUCCC | 0.666 |
| CCAAAUUGGUUCCCCUGCUCCCCCCCUCCAACCUCUCAAAGACAGAAUGUGUCUCAGAGAUUUCCUGCAAGAAACUCAGGUCCAAUCUGGACUAGAAUAAAGACCUCUGG | 1.5 |
| AUGAACCCUGCCCCACUCCUGUCAGCCCCUCAUCAGCCUUUUCAGCAGGUUCCAGUGCCUGACUUGGGAUAGGACUGAGUGGUAGGAGGAGGGGGAGUGGAGGGGCAUAG | 0.784 |
| UUAUUCAGGAAAAAAACUGAGCAGCUCUGGCCAGCAGCAAGGUUUCUUCUCUACUGCCCCAACUAUUGUGUGGCCUCUUGUGCUGAAAUCUCUGGCUUCAGAGCCUGAAA | 0.309 |
| GGAAUAAGUGAUCAGCAAGUGAACACACUCUAUGUCAACUCUCCUUUUAUCCAGCUGAGAUUUAUGGUAACUUAUUUAAUUAAUGGUCCUGUCUGAUGCAUCCUUGAUGG | 0.505 |
